# Measurements gathered from unrelated publications.
# Numbered parts are unrelated; each lists some results of a single study.

# Block 1 — method: protein-binding microarray; form: double-stranded DNA, one strand shown; medium: in vitro; concentration: 0.8 µM; setting: whole 60-bp probe, no competitor; direction: higher = stronger binding; all sequences stand within: … GTCTTGATTCGCTTGACGCTGCTG
# Target: Centromere-binding protein 1, full length, N-terminal tag (CBF1, Saccharomyces cerevisiae, UniProt P17106, residues 1-351)
# UniProt P17106, sequence (whole entry, looked up): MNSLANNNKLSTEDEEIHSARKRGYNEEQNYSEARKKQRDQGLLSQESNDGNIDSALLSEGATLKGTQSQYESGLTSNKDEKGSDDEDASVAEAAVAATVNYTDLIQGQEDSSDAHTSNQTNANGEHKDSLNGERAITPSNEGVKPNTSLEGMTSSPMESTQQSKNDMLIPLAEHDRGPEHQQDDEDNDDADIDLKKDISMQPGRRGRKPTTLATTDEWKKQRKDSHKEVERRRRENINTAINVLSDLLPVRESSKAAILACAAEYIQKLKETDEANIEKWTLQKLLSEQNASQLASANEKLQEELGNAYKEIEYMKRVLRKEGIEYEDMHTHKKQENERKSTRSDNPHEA
Strand,fluorescence intensity
CTAAATCCAATTAGCGACATCACCGAGAAAGTATTC,506 a.u.
TGTACGAAGCTATGTCACGGGGATATAGTAGTTAGG,1820 a.u.
CTAGGATTCGGACTCCACGTTAATTGACAGTGATTC,569 a.u.
CCTAACTACTATATCGTCATGACATAGCTTCGTACA,546 a.u.
GAATTGCTTAGAGTGAACGTGATAGCTTTACGGTAG,1150 a.u.
GAAACTTATATGAACGCCGTGATGCGTACGTCTTAG,543 a.u.
CTAAGAAGGAAAGCGCACATGTGATATCTCGCATTC,1730 a.u.
CTATTTCAGGGACATCATGTTGTAAAAGAAAAATTC,593 a.u.
CTATATATAACAAATCACGTATAAGCATGAGAATTC,645 a.u.
CCTAACTACTATAACCACGTCGTATAGCTTCGTACA,533 a.u.
CTACTTAATGGAACAAACGTGATCTGGGATAAATTC,1700 a.u.
GAAGATATCTTTTGAAACATCAGAAGTGTCCGTTAG,546 a.u.
CTAAGTATCAAAAGAAACGTGCATAAGGACATGTTC,606 a.u.
TGTACGAAGCTATTTCATATGATTATAGTAGTTAGG,523 a.u.
CTATGCAATCACCGTGACACCTTAAATATTTGCTTC,730 a.u.
CTACATTAATGCCTTCACGGGAATACGTATAGATTC,562 a.u.
CTATATGAATCTGAGAGTGTGACCATATGGTGGTTC,672 a.u.
GAATAACTCATTATCCTCGTGAAATATATATATTAG,620 a.u.
GAACCGGTTCACCTTTGCGTGGTCTAGTGCATATAG,522 a.u.

# Block 2 — method: protein binding microarray; form: double-stranded DNA, one strand shown; medium: in vitro; concentration: not given; baseline: not given; direction: higher = stronger binding
# Target: Histone acetyltransferase KAT6A, winged helix 1, GST fusion (KAT6A, Homo sapiens, UniProt Q92794, residues 1-85)
# Setting: 8-mer, flanks averaged, mean of 2 arrays, mostly near background
# Construct (chain): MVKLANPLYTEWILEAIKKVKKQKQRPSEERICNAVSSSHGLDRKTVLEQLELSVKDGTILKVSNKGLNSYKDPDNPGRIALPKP
Strand,E-score
ATGTATAC,-0.116
AATCAAGG,-0.0565
AGACCTAC,-0.0562
AGACATCT,-0.136
ACGAGGTG,-0.159
CATATGCG,0.205
AGTGCACA,-0.144
AACCACAA,-0.0191
CCCGGAGA,0.148
CACGAACC,0.131
ATCGCTCC,0.124
GCACGCCC,0.147
CTCGATCA,-0.0632
TCCACAGA,-0.219
CAGGTAAG,-0.15
AGGGATGG,-0.105
TAGGCCAA,-0.15

# Block 3 — method: RNA Bind-n-Seq; form: RNA; medium: in vitro; concentration: 365 nM; baseline: no-protein control; direction: higher = stronger binding
# Target: RNA binding protein fox-1 homolog 2, RRM domain, GST-SBP tag (RBFOX2, Homo sapiens, UniProt O43251-10, residues 100-194)
# Setting: natural RNA segment, single round, ends assumed
# All sequences stand within: GGGAGUUCUACAGUCCGACGAUC … UGGAAUUCUCGGGUGCCAA
Strand,RBNS enrichment (R)
CUCAGCUAUUCCUGCAGCCAUGGUCCCCAAGAAGUUUAGCCUAUGGGAGAAGAGAGGGUUUCCCUACAUAUCCCCAGAGAAAUCAGGUGACUUUUUCCCGGAGAUGGGGG,0.409
CAUAGUUAAAGCAUGUGUUCACACUGUGUAAACAUUCACAGAAGACUUUUCCUCGUGUGUUGUUGACUCUUUAAACAUAACAGGUAUUAUUAAAAUUAACUGUUAACUGA,1.1
AUUAAACAGAUUGUCUCAUCGUUGCAUCUAUUUUCCAUGUAUUCAUCAAGAGACCAUUUUAUGACACAUUAAGAAGAAAGAACCUUUUUGAAACAAACUCCAGGCCCUUU,0.738
GUGUCUGCCCUUGCCACCUCCCAGCCUGCUGCAUGCAUGUGCAGCAUGGGCUUUUGCUCCAUCACCGCAAAGUUCUGCAGGGGCCCUGGGCAGUGCUGGCCUGUCUGACG,6.46
GGCAACCCACCACCUUCCAUGAAAAACUCCUCUCAUCCUUGUCAUUUUACUUUUUUGUAUACAUAUGUGUAACUUACACUGUUAUUAAUUCAACGGAUAUAUAUUUAUCA,0.452
GGAUGUAUACAGACUUAUUUUCUUUAUUACAGUAUUAUAAGAAAACAUAUGUAUUUGUAAAAAUGGUUUCCUGUGUCAAGUAUUUGUGCAGUCAGAGCUGACUUGUAAAC,0.821
CAUUAGAAGGGACUUGGCCUGCCCUUUGGAACUGUGCCCUUGUAGAAGAAGUAAAGGACUGAAUCAUGCAGAGUGGCUUUUGCCGGACUCCGGGACACAAGAGUGGCAUG,1.38
GUAUCAAAUCUGUAUAUGUUGUAAUAAAACUUAUGCUAGUUUAUUGGAAGUGUUCAAGAAAUAAAAAUCAACUUGUGUACUGAUAAAAUACUCUAGCCUGGGCCAGAGAA,0.463

# Block 4 — method: RNA Bind-n-Seq; form: RNA; medium: in vitro; concentration: 1 µM; setting: whole 134-nt RNA, ends assumed; with: 150 mM KCl; baseline: input library; direction: higher = stronger binding
# Target: Ras GTPase-activating protein-binding protein 1, RRM domain (G3BP1, Homo sapiens, UniProt Q13283)
# UniProt Q13283, sequence (whole entry, looked up): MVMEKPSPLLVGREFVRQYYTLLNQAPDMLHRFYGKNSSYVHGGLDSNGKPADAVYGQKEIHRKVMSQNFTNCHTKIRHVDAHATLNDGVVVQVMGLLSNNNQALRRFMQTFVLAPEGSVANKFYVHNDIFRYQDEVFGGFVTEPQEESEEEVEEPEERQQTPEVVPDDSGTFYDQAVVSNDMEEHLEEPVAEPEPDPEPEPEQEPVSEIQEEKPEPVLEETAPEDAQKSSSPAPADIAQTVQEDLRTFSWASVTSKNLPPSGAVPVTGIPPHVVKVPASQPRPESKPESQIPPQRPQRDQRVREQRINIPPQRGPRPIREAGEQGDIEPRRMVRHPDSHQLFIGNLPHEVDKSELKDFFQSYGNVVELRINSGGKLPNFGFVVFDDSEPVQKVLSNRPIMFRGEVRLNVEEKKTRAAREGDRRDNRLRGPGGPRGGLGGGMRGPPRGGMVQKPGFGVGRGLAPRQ
# All sequences stand within: GGGAGUUCUACAGUCCGACGAUC … UGGAAUUCUCGGGUGUCAAGG
Strand,log2 enrichment
UCAAGUCCUGUGCUACACAUCGUAUGUACCGAAUCGGGGAAGGGGAAGGAAGGGAAAGUAUUAUGUUACGCCGUUCGGAUCUGCACUUCC,-0.117
CACAGACAACACGCACCCACACAGACACAGAGGGAAGGGGUUGGGAUGGCGACAGGGUGCACAGCAGGGCGGGGUAGGACCCCAGCCCCU,-0.0931
UCUCUUAUGCUAUUGGAGUUUCUCAUCCAUUAUCUAUCUCCAUUUUCCAUUAUGGUACCUCUCAGAAGAGUGAGAGAGAGCUAUUAGAGA,-0.213
UAACUUUAGAGGAGGAUCUGAUGGAUAUGGCAGUGGACGUGGAUUUGGGGAUGGGUAUAAUGGGUAUGGAGGAGGACCUGGAGGUGGCAA,-0.382
UGGGAGGUGGAUUUUGUUUAUUUUUUUAGCUCAUUUCCAGGGGUGGGAAUUUUUUUUUAAUAUGUGUCAUGAAUAAAGUUGUUGUUGAAA,1.79
AGUCCUGUGCUACACAUCGUAUGUACCGAAUCGGUUUUUUUGGUUUGGUUUUUUUGGAAAGUAUUAUGUUACGCCGUUCGGAUCUGCACU,-0.417
CUGUGCUACACAUCGUAUGUACCGAAUCGGAAAAAAAGGGGAAAAAAAGGGGAAAAAAAGGAAAGUAUUAUGUUACGCCGUUCGGAUCUG,0.042
GCAGGAAGUAAAAACAAAUGGAAAUGCUUCGGAUAGUGGCAGGGGUGGGGGUUGCUAAGGAAAGGGUUGGAUGGGAGUGGGUAAAGAGUU,1.52
CCUGUGCUACACAUCGUAUGUACCGAAUCGGGGCCCCCCGGCCCCCCGGGCCCCCCGGGGAAAGUAUUAUGUUACGCCGUUCGGAUCUGC,-0.564

# Some of these lines once more (block 4):
Strand,log2 enrichment
UCAAGUCCUGUGCUACACAUCGUAUGUACCGAAUCGGGGAAGGGGAAGGAAGGGAAAGUAUUAUGUUACGCCGUUCGGAUCUGCACUUCC,-0.117
CACAGACAACACGCACCCACACAGACACAGAGGGAAGGGGUUGGGAUGGCGACAGGGUGCACAGCAGGGCGGGGUAGGACCCCAGCCCCU,-0.0931
UCUCUUAUGCUAUUGGAGUUUCUCAUCCAUUAUCUAUCUCCAUUUUCCAUUAUGGUACCUCUCAGAAGAGUGAGAGAGAGCUAUUAGAGA,-0.213
UAACUUUAGAGGAGGAUCUGAUGGAUAUGGCAGUGGACGUGGAUUUGGGGAUGGGUAUAAUGGGUAUGGAGGAGGACCUGGAGGUGGCAA,-0.382
UGGGAGGUGGAUUUUGUUUAUUUUUUUAGCUCAUUUCCAGGGGUGGGAAUUUUUUUUUAAUAUGUGUCAUGAAUAAAGUUGUUGUUGAAA,1.79
AGUCCUGUGCUACACAUCGUAUGUACCGAAUCGGUUUUUUUGGUUUGGUUUUUUUGGAAAGUAUUAUGUUACGCCGUUCGGAUCUGCACU,-0.417
